Published values collected from several papers.
Parts stem from different laboratories: compare values within a part only. Values joined by “and” are separate records of one study, mostly repeats; a detail may differ.
UniProt Q96RR4, sequence (whole entry, looked up): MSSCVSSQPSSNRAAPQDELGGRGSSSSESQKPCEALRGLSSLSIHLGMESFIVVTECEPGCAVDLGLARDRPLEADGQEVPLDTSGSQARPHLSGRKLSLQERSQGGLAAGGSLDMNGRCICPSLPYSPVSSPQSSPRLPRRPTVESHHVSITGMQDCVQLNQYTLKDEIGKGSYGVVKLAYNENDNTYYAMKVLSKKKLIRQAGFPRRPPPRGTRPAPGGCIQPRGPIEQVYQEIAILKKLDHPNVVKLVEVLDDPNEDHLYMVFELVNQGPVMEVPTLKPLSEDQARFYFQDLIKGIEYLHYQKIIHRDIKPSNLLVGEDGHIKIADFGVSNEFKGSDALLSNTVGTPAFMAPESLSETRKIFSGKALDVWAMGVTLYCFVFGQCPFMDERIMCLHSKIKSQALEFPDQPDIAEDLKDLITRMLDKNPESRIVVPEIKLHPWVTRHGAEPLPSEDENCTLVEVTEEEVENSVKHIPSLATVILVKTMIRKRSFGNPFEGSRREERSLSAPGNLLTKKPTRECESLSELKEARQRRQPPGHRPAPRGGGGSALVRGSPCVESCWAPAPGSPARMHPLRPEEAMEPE
UniProt O94804, sequence (whole entry, looked up): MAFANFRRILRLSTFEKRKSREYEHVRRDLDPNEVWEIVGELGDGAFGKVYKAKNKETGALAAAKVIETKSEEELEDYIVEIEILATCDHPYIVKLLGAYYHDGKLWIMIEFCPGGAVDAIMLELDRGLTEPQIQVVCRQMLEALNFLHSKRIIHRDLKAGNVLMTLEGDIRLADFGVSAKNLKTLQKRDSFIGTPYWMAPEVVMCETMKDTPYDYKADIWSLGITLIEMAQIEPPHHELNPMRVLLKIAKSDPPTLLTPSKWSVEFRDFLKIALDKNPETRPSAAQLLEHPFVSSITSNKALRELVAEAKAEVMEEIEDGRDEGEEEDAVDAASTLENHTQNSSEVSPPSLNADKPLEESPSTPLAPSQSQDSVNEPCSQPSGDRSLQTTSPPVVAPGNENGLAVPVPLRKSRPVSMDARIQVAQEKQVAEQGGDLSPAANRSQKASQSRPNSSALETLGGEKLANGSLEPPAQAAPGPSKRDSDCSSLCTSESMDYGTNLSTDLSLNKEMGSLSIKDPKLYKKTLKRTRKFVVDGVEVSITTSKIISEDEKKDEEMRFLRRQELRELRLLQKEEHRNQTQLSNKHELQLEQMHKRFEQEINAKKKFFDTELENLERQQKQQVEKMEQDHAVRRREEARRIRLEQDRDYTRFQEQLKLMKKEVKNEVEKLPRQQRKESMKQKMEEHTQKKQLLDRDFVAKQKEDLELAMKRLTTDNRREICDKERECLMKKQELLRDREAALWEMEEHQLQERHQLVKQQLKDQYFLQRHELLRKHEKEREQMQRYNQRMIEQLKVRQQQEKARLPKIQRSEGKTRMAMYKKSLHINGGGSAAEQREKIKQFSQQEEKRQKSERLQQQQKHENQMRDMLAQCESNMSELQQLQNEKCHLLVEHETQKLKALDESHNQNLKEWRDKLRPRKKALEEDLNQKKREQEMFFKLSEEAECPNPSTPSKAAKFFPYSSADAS
UniProt P19525, sequence (whole entry, looked up): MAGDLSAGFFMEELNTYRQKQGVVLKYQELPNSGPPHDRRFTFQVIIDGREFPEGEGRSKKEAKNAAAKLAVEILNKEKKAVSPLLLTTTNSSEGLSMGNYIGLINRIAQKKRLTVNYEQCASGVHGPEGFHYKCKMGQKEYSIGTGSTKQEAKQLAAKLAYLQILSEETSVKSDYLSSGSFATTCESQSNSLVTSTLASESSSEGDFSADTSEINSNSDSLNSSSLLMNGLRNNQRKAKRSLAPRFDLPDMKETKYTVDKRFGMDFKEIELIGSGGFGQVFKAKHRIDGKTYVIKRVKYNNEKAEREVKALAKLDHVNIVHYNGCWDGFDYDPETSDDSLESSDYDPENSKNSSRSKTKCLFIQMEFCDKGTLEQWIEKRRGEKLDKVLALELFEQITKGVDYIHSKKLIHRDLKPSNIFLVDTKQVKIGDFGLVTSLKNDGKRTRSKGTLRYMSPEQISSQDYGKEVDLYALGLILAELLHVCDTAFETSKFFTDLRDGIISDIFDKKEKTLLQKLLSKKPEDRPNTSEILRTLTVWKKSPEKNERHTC
UniProt P51955, sequence (whole entry, looked up): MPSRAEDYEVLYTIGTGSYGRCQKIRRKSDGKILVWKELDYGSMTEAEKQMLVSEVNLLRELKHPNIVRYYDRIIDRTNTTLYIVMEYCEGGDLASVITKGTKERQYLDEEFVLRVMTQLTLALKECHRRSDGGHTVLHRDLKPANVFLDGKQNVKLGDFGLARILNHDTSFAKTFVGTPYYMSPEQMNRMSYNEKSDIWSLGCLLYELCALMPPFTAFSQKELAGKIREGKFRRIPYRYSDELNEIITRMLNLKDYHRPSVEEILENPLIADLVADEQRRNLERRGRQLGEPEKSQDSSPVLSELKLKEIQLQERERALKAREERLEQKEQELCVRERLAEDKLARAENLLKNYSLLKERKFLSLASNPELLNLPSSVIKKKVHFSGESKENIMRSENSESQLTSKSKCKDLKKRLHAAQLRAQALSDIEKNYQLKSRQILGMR
UniProt P35626, sequence (whole entry, looked up): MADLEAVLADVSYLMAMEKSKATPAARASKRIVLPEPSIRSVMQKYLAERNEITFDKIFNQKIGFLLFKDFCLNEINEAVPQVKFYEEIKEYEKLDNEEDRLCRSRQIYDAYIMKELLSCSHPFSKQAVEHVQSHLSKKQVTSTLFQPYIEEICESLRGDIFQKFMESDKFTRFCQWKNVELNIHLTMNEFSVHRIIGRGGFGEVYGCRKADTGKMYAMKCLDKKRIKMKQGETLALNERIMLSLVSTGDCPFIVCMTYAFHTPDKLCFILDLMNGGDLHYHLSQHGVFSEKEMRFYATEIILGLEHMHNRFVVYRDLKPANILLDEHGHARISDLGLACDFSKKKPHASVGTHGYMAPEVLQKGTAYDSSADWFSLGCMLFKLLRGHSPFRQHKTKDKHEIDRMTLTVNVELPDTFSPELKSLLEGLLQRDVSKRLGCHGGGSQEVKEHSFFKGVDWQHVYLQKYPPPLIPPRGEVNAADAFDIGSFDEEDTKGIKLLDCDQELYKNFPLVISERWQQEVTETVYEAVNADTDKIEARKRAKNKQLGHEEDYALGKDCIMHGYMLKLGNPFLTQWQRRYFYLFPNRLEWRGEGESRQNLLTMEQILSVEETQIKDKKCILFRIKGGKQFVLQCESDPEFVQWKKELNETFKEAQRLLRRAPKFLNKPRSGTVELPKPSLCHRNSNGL
UniProt Q00535, sequence (whole entry, looked up): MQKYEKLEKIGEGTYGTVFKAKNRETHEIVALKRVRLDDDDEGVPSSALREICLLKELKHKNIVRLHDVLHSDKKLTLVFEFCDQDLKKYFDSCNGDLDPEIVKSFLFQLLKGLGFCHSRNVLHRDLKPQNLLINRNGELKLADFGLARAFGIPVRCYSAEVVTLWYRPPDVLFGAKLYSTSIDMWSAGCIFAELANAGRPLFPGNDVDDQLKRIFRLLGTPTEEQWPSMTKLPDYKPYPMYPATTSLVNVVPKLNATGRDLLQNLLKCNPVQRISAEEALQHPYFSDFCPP
UniProt P43220, sequence (whole entry, looked up): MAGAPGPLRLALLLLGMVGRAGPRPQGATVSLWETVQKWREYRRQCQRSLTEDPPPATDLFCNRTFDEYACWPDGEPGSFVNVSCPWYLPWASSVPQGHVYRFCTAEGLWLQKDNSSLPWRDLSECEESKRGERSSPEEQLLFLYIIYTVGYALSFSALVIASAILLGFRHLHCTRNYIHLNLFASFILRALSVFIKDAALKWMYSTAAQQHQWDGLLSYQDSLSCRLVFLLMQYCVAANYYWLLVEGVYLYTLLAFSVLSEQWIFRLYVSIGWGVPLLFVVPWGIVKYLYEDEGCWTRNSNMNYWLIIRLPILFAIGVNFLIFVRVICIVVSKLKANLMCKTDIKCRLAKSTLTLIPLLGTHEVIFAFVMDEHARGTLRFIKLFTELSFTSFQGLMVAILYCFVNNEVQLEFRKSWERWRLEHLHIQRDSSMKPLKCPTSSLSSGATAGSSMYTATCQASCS
UniProt P07948, sequence (whole entry, looked up): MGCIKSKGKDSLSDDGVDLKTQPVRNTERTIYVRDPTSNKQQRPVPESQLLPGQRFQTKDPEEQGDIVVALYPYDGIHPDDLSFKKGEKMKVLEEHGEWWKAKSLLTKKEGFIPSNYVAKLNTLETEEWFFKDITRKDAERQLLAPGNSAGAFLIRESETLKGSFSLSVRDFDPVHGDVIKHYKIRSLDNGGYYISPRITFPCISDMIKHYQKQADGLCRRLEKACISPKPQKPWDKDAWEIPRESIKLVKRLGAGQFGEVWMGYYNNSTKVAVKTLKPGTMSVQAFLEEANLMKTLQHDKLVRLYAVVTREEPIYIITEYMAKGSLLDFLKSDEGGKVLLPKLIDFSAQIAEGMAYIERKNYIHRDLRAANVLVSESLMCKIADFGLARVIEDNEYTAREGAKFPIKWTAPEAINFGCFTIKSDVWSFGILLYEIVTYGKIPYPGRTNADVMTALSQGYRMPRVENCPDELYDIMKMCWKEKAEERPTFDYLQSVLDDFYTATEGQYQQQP
UniProt Q96RI8, sequence (whole entry, looked up): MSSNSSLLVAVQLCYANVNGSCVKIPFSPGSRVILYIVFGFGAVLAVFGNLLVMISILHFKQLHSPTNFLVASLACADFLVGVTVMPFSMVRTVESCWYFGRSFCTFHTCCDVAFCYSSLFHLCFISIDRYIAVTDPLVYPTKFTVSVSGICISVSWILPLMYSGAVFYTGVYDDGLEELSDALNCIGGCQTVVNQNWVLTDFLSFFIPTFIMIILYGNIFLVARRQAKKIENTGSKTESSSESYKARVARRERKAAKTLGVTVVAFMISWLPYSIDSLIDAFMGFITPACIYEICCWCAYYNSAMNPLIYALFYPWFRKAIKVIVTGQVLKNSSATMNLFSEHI

Series 1
SMILES: CCN(c1nc(N)c(C(=O)N=C(N)N)nc1Cl)C(C)C
Effect on: β-arrestin recruitment
Mode: agonist
Method: PRESTO-Tango
Concentration: 10 µM
Relative to: untreated
| target | fold over basal |
| --- | --- |
| Vasopressin V1b receptor (AVPR1B, Homo sapiens, UniProt P47901) | 0.39 |
| Trace amine-associated receptor 6 (TAAR6, Homo sapiens, UniProt Q96RI8) | 0.84 fold |
| Gamma-aminobutyric acid type B receptor subunit 1 (GABBR1, Homo sapiens, UniProt Q9UBS5) | 0.87 fold |
| Prostaglandin E2 receptor EP2 subtype (PTGER2, Homo sapiens, UniProt P43116) | 0.5 |
| Glucagon-like peptide 1 receptor (GLP1R, Homo sapiens, UniProt P43220) | 1.11 fold |
| Kappa-type opioid receptor (OPRK1, Homo sapiens, UniProt P41145) | 1.37 fold |

Series 2
Compound: O=C(NCc1ncc(C(F)(F)F)cc1Cl)c1ccc2c(c1)C1(CCS(=O)(=O)CC1)[C@@H](C1CC1)N2S(=O)(=O)c1ccc(F)cc1
Method: CellTiter-Glo
Concentration: 1 µM
Time: 4 days
Relative to: DMSO
| cell line | viability [%] |
| --- | --- |
| sample E normal colon organoid | 108 |
| sample G normal colon organoid | 102 |
| sample F normal colon organoid | 106 |

Series 3
Compound: O=C1NC(=O)c2c1c1c3ccccc3[nH]c1n1cncc21
Effect on: enzyme activity
Mode: inhibitor
Concentration: 0.5 µM
Relative to: control
| target | remaining activity |
| --- | --- |
| Serine/threonine-protein kinase 10 (STK10, Homo sapiens, UniProt O94804) | 69% |
| Serine/threonine-protein kinase Nek2 (NEK2, Homo sapiens, UniProt P51955) | 87.5% |
| Cyclin-dependent kinase 5, with p25 (CDK5, Homo sapiens, UniProt Q00535) | 89.4% |
| Protein kinase C alpha type (PRKCA, Homo sapiens, UniProt P17252) | 66.5% |
| Inhibitor of nuclear factor kappa-B kinase subunit epsilon (IKBKE, Homo sapiens, UniProt Q14164) | 103% |
| STE20/SPS1-related proline-alanine-rich protein kinase (STK39, Homo sapiens, UniProt Q9UEW8) | 104% |
| TGF-beta receptor type-1 (TGFBR1, Homo sapiens, UniProt P36897) | 96.3% |
| Mitogen-activated protein kinase kinase kinase 3 (MAP3K3, Homo sapiens, UniProt Q99759) | 86.9% |
| Death-associated protein kinase 1 (DAPK1, Homo sapiens, UniProt P53355) | 26.6% |
| Protein kinase C beta type, isoform beta-I (PRKCB, Homo sapiens, UniProt P05771) | 95% |
| Mitogen-activated protein kinase 9 (MAPK9, Homo sapiens, UniProt P45984) | 65.3% |
| Serine/threonine-protein kinase OSR1 (OXSR1, Homo sapiens, UniProt O95747) | 97.2% |
| Cyclin-dependent kinase 4, with cyclin D1 (CDK4, Homo sapiens, UniProt P11802) | 86% |
| cGMP-dependent protein kinase 1, isoform beta (PRKG1, Homo sapiens, UniProt Q13976) | 85.9% |
| TGF-beta receptor type-2 (TGFBR2, Homo sapiens, UniProt P37173) | 95.8% |
| Calcium/calmodulin-dependent protein kinase kinase 2 (CAMKK2, Homo sapiens, UniProt Q96RR4) | 77.2% |
| Serine/threonine-protein kinase STK11 (STK11, Homo sapiens, UniProt Q15831) | 45.2% |
| Death-associated protein kinase 2 (DAPK2, Homo sapiens, UniProt Q9UIK4) | 43.8% |
| Tyrosine-protein kinase Lyn, isoform B (LYN, Homo sapiens, UniProt P07948) | 96.2% |
| G protein-coupled receptor kinase 3 (GRK3, Homo sapiens, UniProt P35626) | 109% |
| Calcium/calmodulin-dependent protein kinase type II subunit delta (CAMK2D, Homo sapiens, UniProt Q13557) | 36.7% |
| Inhibitor of nuclear factor kappa-B kinase subunit beta (IKBKB, Homo sapiens, UniProt O14920) | 95.9% |
| cAMP-dependent protein kinase catalytic subunit alpha (PRKACA, Homo sapiens, UniProt P17612) | 98.2% |

Series 4
Host: mouse
Medium: microsomes or S9
Concentration: 2 µM
Time: 0.5 h
| Structure (SMILES) | remaining compound |
| --- | --- |
| O=C(NCC1(c2cccs2)CCOCC1)c1ccc2ncsc2c1 | 3.34% |
| c1cc2c(cc1C1CCCCC1)c1c3n2CCN=C3NCC1 | 77% |
| O=S(=O)(Nc1cc(F)cc(F)c1)c1c[nH]c2ncccc12 | 45.8% |
| Cn1cc(C(N)=O)cc1C(=O)Nc1ccccc1Oc1ccccc1 | 0.27% |
| O=C1CCc2cc(Cl)ccc2N1Cc1ccc(Cl)cc1Cl | 48.2% |

Series 5
Cell line: mouse MPNST tumor cells
Method: high-content nuclear imaging
Item: cell number
Concentration: 10 µM
Time: 12 h
Setting: mean of 2 replicates
Relative to: plate mean
Reading: higher = more cells
| Compound | nuclei count |
| --- | --- |
| Clc1cccc(C(c2ccc3[nH]cnc3c2)n2ccnc2)c1 (centres unmarked) | 2.96 z-score |
| COc1ccc(-n2cnnn2)cc1CN[C@H]1CCCN[C@H]1c1ccccc1 | 2.03 z-score |
| CC(C)c1c(C(=O)Nc2ccccc2)c(-c2ccccc2)c(-c2ccc(F)cc2)n1CC[C@@H](O)C[C@@H](O)CC(=O)O | -2.52 z-score and -1.52 z-score |
| CN(CCOc1ccc(CC2SC(=O)NC2=O)cc1)c1ccccn1 (centres unmarked) | 2.64 z-score and 2.79 z-score and 1.9 z-score |
| N=C(N)N1CCc2ccccc2C1 | 0.72 z-score |
| Cc1ccc(S(=O)(=O)N2CCCC2c2ccc(F)cc2)cc1 (centres unmarked) | 0.68 z-score |

Series 6
Structure (SMILES): COc1ccc2[nH]c3c4[nH]c5ccc(OC)cc5c4c4c(c3c2c1)C(=O)NC4=O
Effect on: binding
Concentration: 1 µM
| target | method | remaining binding |
| --- | --- | --- |
| Transient receptor potential cation channel subfamily M member 6 (TRPM6, Homo sapiens, UniProt Q9BX84) | – | 79% |
| 1-phosphatidylinositol 3-phosphate 5-kinase (PIKFYVE, Homo sapiens, UniProt Q9Y2I7) | – | 0% |
| Myosin light chain kinase (MYLK3, Homo sapiens, UniProt Q32MK0) | competition with immobilised ligand | 16% |
| Interferon-induced, double-stranded RNA-activated protein kinase (EIF2AK2, Homo sapiens, UniProt P19525) | – | 100% |

Some of these lines once more (series 3):
| target | remaining activity |
| --- | --- |
| Serine/threonine-protein kinase 10 (STK10, Homo sapiens, UniProt O94804) | 69% |
| Serine/threonine-protein kinase Nek2 (NEK2, Homo sapiens, UniProt P51955) | 87.5% |
| Cyclin-dependent kinase 5, with p25 (CDK5, Homo sapiens, UniProt Q00535) | 89.4% |
| Protein kinase C alpha type (PRKCA, Homo sapiens, UniProt P17252) | 66.5% |
| Inhibitor of nuclear factor kappa-B kinase subunit epsilon (IKBKE, Homo sapiens, UniProt Q14164) | 103% |
